Results from different studies.
A part holds a random share of what one study measured.
UniProt Q13882, sequence (whole entry, looked up): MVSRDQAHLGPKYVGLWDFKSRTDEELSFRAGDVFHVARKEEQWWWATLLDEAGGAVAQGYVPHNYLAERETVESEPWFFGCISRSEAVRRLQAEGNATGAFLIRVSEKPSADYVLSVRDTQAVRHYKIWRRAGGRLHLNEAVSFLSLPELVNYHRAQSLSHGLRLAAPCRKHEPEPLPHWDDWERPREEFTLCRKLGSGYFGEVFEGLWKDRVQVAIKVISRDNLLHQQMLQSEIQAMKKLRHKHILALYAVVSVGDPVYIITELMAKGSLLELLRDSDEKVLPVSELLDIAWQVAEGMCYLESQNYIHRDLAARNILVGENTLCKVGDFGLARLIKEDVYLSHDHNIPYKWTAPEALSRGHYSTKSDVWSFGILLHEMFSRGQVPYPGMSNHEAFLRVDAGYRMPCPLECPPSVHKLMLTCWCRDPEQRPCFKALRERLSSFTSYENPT
UniProt Q9H4B4, sequence (whole entry, looked up): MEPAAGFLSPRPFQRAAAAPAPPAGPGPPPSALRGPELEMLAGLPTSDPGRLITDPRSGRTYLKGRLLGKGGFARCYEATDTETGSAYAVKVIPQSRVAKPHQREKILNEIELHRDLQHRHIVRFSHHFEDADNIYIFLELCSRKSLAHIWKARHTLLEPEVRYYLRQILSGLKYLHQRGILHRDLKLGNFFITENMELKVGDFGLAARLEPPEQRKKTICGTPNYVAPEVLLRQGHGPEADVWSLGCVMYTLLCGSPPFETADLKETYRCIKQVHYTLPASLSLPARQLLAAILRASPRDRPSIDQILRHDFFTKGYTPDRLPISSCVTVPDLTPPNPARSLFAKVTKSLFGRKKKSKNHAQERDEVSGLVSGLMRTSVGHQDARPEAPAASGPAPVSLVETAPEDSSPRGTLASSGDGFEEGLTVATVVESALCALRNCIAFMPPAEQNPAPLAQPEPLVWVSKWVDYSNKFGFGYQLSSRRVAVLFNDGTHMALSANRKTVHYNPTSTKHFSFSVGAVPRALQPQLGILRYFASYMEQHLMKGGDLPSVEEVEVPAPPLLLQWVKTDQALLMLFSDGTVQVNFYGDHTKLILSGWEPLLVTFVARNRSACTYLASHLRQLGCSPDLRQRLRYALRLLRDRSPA
UniProt Q9Y3S1, sequence (whole entry, looked up): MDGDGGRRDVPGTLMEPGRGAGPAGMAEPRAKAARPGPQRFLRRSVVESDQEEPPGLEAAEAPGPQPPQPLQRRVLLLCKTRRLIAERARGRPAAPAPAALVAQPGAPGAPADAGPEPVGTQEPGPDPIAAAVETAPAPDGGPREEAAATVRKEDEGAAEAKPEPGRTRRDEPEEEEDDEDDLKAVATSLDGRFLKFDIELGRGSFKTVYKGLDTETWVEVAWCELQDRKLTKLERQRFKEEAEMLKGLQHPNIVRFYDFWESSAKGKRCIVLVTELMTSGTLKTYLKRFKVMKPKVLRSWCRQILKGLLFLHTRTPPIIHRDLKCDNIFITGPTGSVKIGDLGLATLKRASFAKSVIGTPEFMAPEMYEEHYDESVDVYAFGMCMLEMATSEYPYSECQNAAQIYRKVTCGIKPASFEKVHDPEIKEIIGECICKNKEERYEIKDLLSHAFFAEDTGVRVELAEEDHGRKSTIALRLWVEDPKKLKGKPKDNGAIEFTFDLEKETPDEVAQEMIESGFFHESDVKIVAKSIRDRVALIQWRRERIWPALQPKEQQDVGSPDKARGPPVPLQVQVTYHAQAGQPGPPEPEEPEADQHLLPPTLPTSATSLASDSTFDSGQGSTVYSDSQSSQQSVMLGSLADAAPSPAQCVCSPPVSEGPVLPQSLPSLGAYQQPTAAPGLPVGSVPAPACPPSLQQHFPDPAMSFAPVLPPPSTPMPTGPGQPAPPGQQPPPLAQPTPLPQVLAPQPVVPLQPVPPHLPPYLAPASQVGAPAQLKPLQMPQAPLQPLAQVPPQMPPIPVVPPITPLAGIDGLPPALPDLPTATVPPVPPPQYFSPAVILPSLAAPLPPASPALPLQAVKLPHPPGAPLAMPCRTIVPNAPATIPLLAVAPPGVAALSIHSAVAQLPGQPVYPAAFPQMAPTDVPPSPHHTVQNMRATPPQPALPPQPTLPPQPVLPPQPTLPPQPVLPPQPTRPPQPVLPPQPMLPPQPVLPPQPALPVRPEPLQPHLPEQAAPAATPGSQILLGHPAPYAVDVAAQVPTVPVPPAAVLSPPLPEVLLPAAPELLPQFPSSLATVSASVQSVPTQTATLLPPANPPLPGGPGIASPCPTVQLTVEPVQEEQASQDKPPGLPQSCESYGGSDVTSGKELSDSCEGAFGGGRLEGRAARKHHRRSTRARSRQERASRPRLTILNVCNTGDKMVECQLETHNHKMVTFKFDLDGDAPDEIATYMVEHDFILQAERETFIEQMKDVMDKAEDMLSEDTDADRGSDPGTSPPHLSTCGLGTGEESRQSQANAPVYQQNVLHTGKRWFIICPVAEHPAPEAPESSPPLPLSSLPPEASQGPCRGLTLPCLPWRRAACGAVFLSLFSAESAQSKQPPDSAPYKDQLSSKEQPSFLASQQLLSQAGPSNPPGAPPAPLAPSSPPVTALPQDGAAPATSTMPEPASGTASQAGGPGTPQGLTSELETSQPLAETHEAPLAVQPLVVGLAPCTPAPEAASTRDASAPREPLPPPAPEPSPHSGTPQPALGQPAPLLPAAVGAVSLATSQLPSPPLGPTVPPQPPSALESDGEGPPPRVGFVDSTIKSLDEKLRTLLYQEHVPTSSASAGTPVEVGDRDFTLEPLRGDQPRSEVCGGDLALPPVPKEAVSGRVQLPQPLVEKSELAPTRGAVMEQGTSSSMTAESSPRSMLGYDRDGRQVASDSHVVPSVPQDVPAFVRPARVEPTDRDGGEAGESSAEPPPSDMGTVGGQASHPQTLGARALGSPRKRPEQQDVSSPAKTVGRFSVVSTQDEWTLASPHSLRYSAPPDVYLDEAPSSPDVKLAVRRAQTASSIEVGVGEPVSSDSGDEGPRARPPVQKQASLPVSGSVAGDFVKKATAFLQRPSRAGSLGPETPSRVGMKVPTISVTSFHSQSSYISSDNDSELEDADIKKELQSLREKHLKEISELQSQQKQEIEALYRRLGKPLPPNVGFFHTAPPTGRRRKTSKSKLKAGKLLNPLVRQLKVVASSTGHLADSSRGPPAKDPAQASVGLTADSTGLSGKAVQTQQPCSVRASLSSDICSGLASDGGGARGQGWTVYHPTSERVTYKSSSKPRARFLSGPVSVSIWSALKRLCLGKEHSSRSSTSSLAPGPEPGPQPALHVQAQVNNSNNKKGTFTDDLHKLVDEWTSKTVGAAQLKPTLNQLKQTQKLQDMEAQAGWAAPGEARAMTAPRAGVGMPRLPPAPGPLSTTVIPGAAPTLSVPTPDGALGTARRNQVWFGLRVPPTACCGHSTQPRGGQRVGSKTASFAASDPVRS
UniProt P51812, sequence (whole entry, looked up): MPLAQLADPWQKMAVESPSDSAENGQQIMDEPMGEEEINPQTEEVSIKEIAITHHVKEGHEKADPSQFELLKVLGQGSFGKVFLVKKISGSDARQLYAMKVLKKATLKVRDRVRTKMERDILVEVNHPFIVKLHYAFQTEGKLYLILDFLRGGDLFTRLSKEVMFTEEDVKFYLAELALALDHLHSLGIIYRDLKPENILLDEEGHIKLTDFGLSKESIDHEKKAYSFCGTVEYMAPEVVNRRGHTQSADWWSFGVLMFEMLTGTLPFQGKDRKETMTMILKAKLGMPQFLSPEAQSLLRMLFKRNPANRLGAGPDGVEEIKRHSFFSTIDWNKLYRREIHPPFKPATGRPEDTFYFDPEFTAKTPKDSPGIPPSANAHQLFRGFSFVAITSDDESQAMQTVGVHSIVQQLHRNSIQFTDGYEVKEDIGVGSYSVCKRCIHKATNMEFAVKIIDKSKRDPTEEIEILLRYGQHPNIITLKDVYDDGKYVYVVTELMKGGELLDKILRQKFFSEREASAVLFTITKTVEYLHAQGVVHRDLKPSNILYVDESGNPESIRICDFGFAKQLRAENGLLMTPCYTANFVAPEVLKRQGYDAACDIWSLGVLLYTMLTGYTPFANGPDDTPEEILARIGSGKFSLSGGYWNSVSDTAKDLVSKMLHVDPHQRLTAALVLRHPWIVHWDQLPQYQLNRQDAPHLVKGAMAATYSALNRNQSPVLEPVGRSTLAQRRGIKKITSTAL
UniProt P0C1S8, sequence (whole entry, looked up): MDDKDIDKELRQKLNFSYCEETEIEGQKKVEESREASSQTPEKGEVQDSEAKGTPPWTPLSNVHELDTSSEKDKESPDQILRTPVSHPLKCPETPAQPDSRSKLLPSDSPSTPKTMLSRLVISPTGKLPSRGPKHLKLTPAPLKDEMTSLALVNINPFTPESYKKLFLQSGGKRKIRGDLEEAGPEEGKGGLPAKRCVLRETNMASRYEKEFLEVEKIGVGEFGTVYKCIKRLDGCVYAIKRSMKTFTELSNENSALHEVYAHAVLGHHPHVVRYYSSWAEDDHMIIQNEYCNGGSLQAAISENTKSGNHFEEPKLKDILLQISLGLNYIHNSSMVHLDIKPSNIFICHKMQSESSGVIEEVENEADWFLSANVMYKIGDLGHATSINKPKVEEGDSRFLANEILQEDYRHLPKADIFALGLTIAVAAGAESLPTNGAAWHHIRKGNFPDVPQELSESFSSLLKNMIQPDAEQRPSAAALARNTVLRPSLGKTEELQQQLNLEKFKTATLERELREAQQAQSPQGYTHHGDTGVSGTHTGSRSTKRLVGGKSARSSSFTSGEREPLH
UniProt Q86YV6, sequence (whole entry, looked up): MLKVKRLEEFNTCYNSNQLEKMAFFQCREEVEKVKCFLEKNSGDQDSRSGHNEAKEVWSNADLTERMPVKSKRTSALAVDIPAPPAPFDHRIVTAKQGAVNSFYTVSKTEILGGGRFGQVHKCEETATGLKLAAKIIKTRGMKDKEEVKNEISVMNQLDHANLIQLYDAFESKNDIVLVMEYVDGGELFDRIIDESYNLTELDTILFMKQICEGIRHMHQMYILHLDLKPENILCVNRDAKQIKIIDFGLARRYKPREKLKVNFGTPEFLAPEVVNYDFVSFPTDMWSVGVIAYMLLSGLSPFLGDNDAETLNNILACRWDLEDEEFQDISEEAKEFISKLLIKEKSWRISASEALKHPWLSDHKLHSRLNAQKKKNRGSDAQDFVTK

Series 1
SMILES: O=C(NCCCC1CCCCC1)c1ccc(CNC(=O)c2cnn(-c3ccccc3)c2C(F)(F)F)cc1
Technique: competition with immobilised ligand
Tested at: 0.1 µM
target | assay | remaining binding [%]
Dual specificity mitogen-activated protein kinase kinase 1 (MAP2K1, Homo sapiens, UniProt Q02750) | cell-free assay | 89
Protein-tyrosine kinase 6 (PTK6, Homo sapiens, UniProt Q13882) | cell-free assay | 97
NT-3 growth factor receptor (NTRK3, Homo sapiens, UniProt Q16288) | cell-free assay | 100
Myosin light chain kinase family member 4 (MYLK4, Homo sapiens, UniProt Q86YV6) | cell-free assay | 100
Serine/threonine-protein kinase PAK 4 (PAK4, Homo sapiens, UniProt O96013) | cell-free assay | 100
Ephrin type-B receptor 1 (EPHB1, Homo sapiens, UniProt P54762) | cell-free assay | 89
RAF proto-oncogene serine/threonine-protein kinase (RAF1, Homo sapiens, UniProt P04049) | cell-free assay | 99
MAP/microtubule affinity-regulating kinase 4 (MARK4, Homo sapiens, UniProt Q96L34) | cell-free assay | 98
Wee1-like protein kinase 2 (WEE2, Homo sapiens, UniProt P0C1S8) | cell-free assay | 100
Transient receptor potential cation channel subfamily M member 6 (TRPM6, Homo sapiens, UniProt Q9BX84) | cell-free assay | 94
Serine/threonine-protein kinase PLK3 (PLK3, Homo sapiens, UniProt Q9H4B4) | cell-free assay | 100
Cyclin-dependent kinase 11A (CDK11A, Homo sapiens, UniProt Q9UQ88) | binding | 100
Dual specificity tyrosine-phosphorylation-regulated kinase 1A (DYRK1A, Homo sapiens, UniProt Q13627) | cell-free assay | 99
Ribosomal protein S6 kinase alpha-3, N-terminal kinase domain (RPS6KA3, Homo sapiens, UniProt P51812) | cell-free assay | 100
Mast/stem cell growth factor receptor Kit (KIT, Homo sapiens, UniProt P10721, V559D) | cell-free assay | 100
Serine/threonine-protein kinase WNK2 (WNK2, Homo sapiens, UniProt Q9Y3S1) | cell-free assay | 100
Mitogen-activated protein kinase kinase kinase 14 (MAP3K14, Homo sapiens, UniProt Q99558) | cell-free assay | 90
TRAF2 and NCK-interacting protein kinase (TNIK, Homo sapiens, UniProt Q9UKE5) | cell-free assay | 100

Series 2
Target: Serine/threonine-protein kinase D3 (PRKD3, Homo sapiens, UniProt O94806)
Observed: enzyme activity
Mode: inhibitor
Tested at: 0.5 µM
Relative to: control
Residues (O94806 1-890): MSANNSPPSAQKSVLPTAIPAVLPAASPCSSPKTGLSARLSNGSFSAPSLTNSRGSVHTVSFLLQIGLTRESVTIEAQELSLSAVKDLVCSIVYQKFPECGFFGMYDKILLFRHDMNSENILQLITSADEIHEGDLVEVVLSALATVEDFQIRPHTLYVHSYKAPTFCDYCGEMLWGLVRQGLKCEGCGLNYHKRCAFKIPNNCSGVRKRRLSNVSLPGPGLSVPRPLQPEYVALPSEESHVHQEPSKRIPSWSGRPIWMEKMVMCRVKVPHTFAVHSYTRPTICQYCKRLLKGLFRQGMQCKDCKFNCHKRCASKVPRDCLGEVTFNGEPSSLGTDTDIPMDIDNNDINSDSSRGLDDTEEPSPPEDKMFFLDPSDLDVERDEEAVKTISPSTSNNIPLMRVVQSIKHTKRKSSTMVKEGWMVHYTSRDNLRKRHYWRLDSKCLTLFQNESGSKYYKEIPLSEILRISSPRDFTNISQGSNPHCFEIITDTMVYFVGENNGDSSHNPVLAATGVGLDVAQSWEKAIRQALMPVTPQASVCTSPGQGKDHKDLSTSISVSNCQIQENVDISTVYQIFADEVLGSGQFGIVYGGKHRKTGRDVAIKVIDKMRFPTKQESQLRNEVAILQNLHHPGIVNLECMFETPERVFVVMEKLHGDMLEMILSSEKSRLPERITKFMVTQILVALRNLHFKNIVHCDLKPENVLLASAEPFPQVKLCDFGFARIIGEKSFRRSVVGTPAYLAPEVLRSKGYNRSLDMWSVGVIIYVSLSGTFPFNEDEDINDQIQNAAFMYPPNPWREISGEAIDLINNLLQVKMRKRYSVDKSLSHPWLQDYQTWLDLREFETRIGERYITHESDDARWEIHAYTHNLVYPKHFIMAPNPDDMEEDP
SMILES | remaining activity
COc1cc2nccc(Oc3ccc(NC(=S)NC(=O)c4ccccc4C)cc3)c2cc1OC | 97.8%
O=C(Nc1cccc(Nc2cc(Nc3cccc(C(F)(F)F)c3)ncn2)c1)C1CC1 | 96.9%
Nc1ccc2ncnc(NCCc3ccc(Oc4ccccc4)cc3)c2c1 | 98.1%
O=C(CCCc1ccc(-c2ccccc2F)cc1)Nc1ccc(O)cc1 | 96.9%
COc1ccc(C(=O)Nc2sc3c(c2C(N)=O)CCCC3)cc1OC | 103%
CN(C)c1ccc(C=C2C(=O)Nc3ccccc32)cc1 | 99.2%
O=C(O)c1ccc2c3c1cccc3c(=O)n1c3ccccc3nc21 | 82.2%
NCCNc1ncc(C(N)=O)c(Nc2cccc(C(F)(F)F)c2)n1 | 13.5%
Cn1c2ccccc2c2c3c(c4c5ccccc5n(CCC#N)c4c21)CNC3=O | 7.3%
O=C1NC(=O)C(c2cn(CCCO)c3ncccc23)=C1c1cnccn1 | 78.2%
N#CC(C#N)=C(N)/C(C#N)=C/c1ccc(O)cc1 | 91.9%
COc1ccc(CNC(=O)Nc2ncc([N+](=O)[O-])s2)cc1 | 93.4%
Nc1[nH]nc2nc3ccccc3nc12 | 87.3%
C#Cc1cccc(Nc2ncnc3cc(OCCOC)c(OCCOC)cc23)c1 | 86.5%
Oc1ccc(-c2nc(-c3ccncc3)c(-c3ccc(F)cc3)[nH]2)cc1 | 69.8%

Series 3
Cell line: HaCaT
Tested at: 100 µM
Time: 36 h
Compound | viability [%]
O=C1c2c(O)cccc2C([C@@H]2O[C@H](CO)[C@@H](O)[C@H](O)[C@H]2O)c2cc(CO)cc(O)c21 (some centres unmarked) | 98.8
O=C(O)c1cc(=O)c2c(OCC(O)COc3cccc4oc(C(=O)O)cc(=O)c34)cccc2o1 | 96.1
CN(c1nccc(=O)[nH]1)C1CCN(c2nc3ccccc3n2Cc2ccc(F)cc2)CC1 | 47.5
Nc1ccc(S(=O)(=O)Nc2ncccn2)cc1 | 60.1

Further values, each from its own experiment
SMILES | assay | test system | conditions | quantity | value
CC(C)n1cnc(-c2ccc(F)cc2)c1-c1ncc(C(=O)Nc2ccc(N3CCN(C)CC3)cc2)[nH]1 | phase 2a clinical trial | patients with idiopathic pulmonary fibrosis | dose not given, all compound arms pooled | patients with Gingivitis TEAE | 0%

For quick reference, copied from above (series 2):
SMILES | remaining activity
NCCNc1ncc(C(N)=O)c(Nc2cccc(C(F)(F)F)c2)n1 | 13.5%
Cn1c2ccccc2c2c3c(c4c5ccccc5n(CCC#N)c4c21)CNC3=O | 7.3%
